Measurements gathered from unrelated publications.
Compare with care: the assays were run in different laboratories. Numbers after ± are the reported error.
lysM 1-142: lysM 1-142 (Sulfolobus solfataricus, UniProt Q980W9)
Sequence of UniProt Q980W9 (whole entry, looked up): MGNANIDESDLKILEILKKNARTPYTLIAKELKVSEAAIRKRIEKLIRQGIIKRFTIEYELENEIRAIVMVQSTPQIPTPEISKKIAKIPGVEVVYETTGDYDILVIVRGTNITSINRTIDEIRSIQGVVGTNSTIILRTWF
SNU13: SNU13 1-128 (Homo sapiens, UniProt P55769)
Sequence of UniProt P55769 (whole entry, looked up): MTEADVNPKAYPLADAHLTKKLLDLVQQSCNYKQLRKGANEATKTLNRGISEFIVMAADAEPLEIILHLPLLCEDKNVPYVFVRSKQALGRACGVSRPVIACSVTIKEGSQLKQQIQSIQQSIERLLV
abrB full length assumed: abrB full length assumed (Bacillus licheniformis, UniProt Q65PI4)
T1: Cbp1 1-150 (Saccharolobus islandicus); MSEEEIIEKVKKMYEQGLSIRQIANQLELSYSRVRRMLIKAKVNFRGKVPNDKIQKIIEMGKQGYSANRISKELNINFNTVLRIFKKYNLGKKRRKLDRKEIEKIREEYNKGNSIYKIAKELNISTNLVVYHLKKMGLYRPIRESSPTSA
T2: NR1I2/RXRA (Homo sapiens); chain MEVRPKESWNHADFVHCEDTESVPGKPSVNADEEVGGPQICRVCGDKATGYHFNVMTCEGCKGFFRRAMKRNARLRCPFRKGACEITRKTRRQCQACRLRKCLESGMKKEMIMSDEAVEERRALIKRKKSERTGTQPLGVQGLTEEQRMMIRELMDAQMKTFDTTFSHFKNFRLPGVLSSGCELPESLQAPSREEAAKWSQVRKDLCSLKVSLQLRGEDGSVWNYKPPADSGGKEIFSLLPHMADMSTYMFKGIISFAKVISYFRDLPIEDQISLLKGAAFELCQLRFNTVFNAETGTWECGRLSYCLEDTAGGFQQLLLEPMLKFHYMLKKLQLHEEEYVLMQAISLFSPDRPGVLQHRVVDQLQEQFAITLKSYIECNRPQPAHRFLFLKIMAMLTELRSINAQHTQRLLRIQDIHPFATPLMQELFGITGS; chain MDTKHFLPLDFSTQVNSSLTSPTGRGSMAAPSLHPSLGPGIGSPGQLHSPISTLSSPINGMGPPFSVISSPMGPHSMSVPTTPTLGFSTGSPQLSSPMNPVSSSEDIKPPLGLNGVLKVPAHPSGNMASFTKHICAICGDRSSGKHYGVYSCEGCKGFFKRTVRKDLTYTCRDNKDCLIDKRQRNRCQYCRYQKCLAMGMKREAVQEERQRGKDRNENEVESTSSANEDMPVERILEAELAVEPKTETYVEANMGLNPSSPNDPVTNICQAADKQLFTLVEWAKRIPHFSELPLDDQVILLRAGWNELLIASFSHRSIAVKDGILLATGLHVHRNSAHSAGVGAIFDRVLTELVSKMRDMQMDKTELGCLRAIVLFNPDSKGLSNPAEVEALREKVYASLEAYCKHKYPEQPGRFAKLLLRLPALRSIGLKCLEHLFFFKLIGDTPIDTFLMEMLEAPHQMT
B1: UGT1A9 (Homo sapiens, UniProt O60656); chain GKLLVVPMDGSHWFTMRSVVEKLILRGHEVVVVMPEVSWQLGRSLNCTVKTYSTSYTLEDLDREFKAFAHAQWKAQVRSIYSLLMGSYNDIFDLFFSNCRSLFKDKKLVEYLKESSFDAVFLDPFDNCGLIVAKYFSLPSVVFARGILCHYLEEGAQCPAPLSYVPRILLGFSDAMTFKERVRNHIMHLEEHLLCHRFFKNALEIASEILQTPVTEYDLYSHTSIWLLRTDFVLDYPKPVMPNMIFIGGINCHQGKPLPMEFEAYINASGEHGIVVFSLGSMVSEIPEKKAMAIADALGKIPQTVLWRYTGTRPSNLANNTILVKWLPQNDLLGHPMTRAFITHAGSHGVYESICNGVPMVMMPLFGDQMDNAKRMETKGAGVTLNVLEMTSEDLENALKAVINDKSYKENIMRLSSLHKDRPVEPLDLAVFWVEFVMRHKGAPHLRPAAHDLTWYQYHSLDVIGFLLAVVLTVAFITFKCCAYGYRKCLGKKGRVKKAHKSKTH
Sequence of UniProt Q1LUM3 (whole entry, looked up): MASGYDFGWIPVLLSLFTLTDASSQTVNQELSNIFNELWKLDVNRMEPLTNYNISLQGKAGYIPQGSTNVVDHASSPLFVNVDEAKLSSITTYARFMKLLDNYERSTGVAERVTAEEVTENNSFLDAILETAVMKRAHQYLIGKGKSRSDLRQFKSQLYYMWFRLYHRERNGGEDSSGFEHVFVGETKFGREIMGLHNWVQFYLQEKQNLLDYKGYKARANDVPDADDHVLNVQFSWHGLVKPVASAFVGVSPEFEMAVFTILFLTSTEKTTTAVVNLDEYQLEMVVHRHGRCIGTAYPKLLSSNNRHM
Sequence of UniProt P19484 (whole entry, looked up): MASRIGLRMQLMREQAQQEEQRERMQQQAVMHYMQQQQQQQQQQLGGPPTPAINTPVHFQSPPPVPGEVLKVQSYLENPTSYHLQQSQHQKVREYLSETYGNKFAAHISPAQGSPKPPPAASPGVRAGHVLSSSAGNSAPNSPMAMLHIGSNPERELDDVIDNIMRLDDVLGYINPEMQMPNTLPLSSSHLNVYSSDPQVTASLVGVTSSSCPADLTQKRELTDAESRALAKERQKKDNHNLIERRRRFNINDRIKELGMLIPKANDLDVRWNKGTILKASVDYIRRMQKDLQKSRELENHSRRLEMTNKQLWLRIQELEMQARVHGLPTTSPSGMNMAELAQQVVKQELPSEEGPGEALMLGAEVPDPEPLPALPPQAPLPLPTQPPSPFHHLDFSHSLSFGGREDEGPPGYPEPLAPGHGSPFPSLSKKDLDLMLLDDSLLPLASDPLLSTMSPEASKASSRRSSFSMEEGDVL

Molecule | target or system | assay | test system | setting | quantity | value
GGGAUGUUAAAGAUGAGCGGGUGGCAGCGACAGAGCCAAAAUCAGAGCUGGAACCUGAGGAGAGAGUGUUCAAGAAGGAAGUGUAUCUUCAUACAUCACCACACCUG (structured RNA (Homo sapiens); stem-loop nt 72-91) | endouc 23-309 (Danio rerio, UniProt Q1LUM3) | EMSA |  |  | binding | binds
GAGUUGAGUUGAGUUGAGUUGAGUUGAGUUGAGUUGAGUUGAGUUGAGUUGAGUU (ssRNA; single strand) | mtrB full length assumed T30I (Bacillus subtilis, UniProt P19466) | filter binding |  | with: L-tryptophan 1 mM | Kd | 0.11 ± 0.01 µM
GATTGCAGAGATACTACAAAGGTATTACAAAAAAATAGGCATAGAGAATGTGAATCAGTTGATACTAACTACTATAAAATAGTTCGTATGTCGAACCTTTCTTTACCGAATTCATTATATATCCTTTACCTTAATTCTCACTTGTATGATAAAAGTAGGTATTTTAGATTCGACGTTAAGAGAAGGAG (dsDNA) | lysM 1-142 | EMSA | double-stranded DNA, one strand shown |  | binding | binds
TTCCTCCATCTTCATCTTCACCACCACCTTTCAATTCTATAGTAGATTAGCGGGTAATAATGGGCATAGGCATAGGGGTTGCTATCGGCTTCTTTCAATTCTATAGTAGATTAGCGATAAGCGATAAGCCCCGCGACTGCGAAGATGACAAAGAAGA (dsDNA (Sulfolobus islandicus)) | T1, Cbp1 1-150 (Saccharolobus islandicus) | EMSA | double-stranded DNA, one strand shown | two retarded bands | binding | binds
AACTGCAGGAAATTCTACTGTAAAGTATGGTTCCCAATTTATTATATTCTATTATCATGAAACTATCTCTTAAGTTCGGAAATCAAACCTCATATTAACGCCAATCAAAACTAATTACTAAATAGTCTATGAAATTTATGAATAGTTTTTAATCAATGCCTTCAACAATAGAAAGGGATCCCG (dsDNA) | lysM 1-142 | EMSA | double-stranded DNA, one strand shown |  | binding | binds
GGGAUCGUCAGGUGGGAUAAUCCUUACCUGUUCCUCCUCCGGAGGGCAGAUUAGAACAUAAUGAUUGGAGAUGCAUGAAACGUGAUUAACGUCUCUGCGUAAUCAGGACUUGCAACACCCUGAUUGCUCCUGUCUGAUU (structured RNA) | SNU13 | EMSA |  | with: Mg2+ 1.5 mM | binding | no binding
UUUCAGCUCCGGUCACGCUC (ssRNA; m5C at position 10) | SRSF2 1-115 P95H (Homo sapiens, UniProt Q01130) | NanoBRET competition |  | apparent, not purified | Ki | 0.0434 µM
TCAGCTGAATGAACTTGCTGAC (dsDNA) | T2, NR1I2/RXRA (Homo sapiens) | fluorescence anisotropy competition | double-stranded DNA, one strand shown | with: DR3 FAM | Ki | 0.102 ± 0.0052 µM
GTAATCCGCCGTAACCAGCGCCTAAAATGACGATATGTTTTGACATCGTGAATCCTCCGTCCTTATTCTGAATGTATAGTGATTATTTTTGTTTTTCGCGTTCTGACATGATTTGCAGGTAGCTTTGAACAAATCGGAACAGCTTTTGGGCCTGCGGATCTTTAAGCATTTTCAGCAAACCGAAAAGTCCGATGACTTCATTGCTTTCGTCAGCGCGGTCTTTTGCTTCAATGGCG (dsDNA) | abrB full length assumed | EMSA | double-stranded DNA, one strand shown |  | binding | binds
ATAGCGAGACGGTAGACGACGACCAGAACTACTTCTGCTCACGTAAGCGAGTAATCACGTGAGCGCCTACGTCATGTGAGATCTCGGTCACGTGAGCAACTCTCGGCTTAAACTCGGGATCACTAAGGTGCCGCACTTCCTTCTGGTATGGAAATAGGGCGGGTCAATATCAAGAAAGGAAGAGGGTGATTGGTTAGCGGAACGTCTTACGTGACTGATTATTGGTCTACCTCTGGG (dsDNA) | TFEB full length assumed (Homo sapiens, UniProt P19484) | EMSA | double-stranded DNA, one strand shown | with: Mg2+ 5 mM | binding | binds
GTTGTTTTAGTGCTTGTTAACCAGCGTGTCACAAAATATCTATAATTCCTTCGTATAATTGTCACAATGACATCCATAAATTAGGGGAAATGTACTTTATTTAAGAAGGAATTCGCGGTAAAGTACAGGTATAAATAACCATCCTGATAATAACGGAACATCAATGCGGGCCGAGGTCACCCTTTTGTCTGTAATCATAATCACATTAATAAGATGCATGTGAAAGTCTGAGCAAGTGTGATGCCCATTTGGCAAACGGGCCCGGCTAGAACAAAGAGGAGGAGAC (dsDNA) | abrB full length assumed | EMSA | double-stranded DNA, one strand shown |  | binding | binds
B1 (UGT1A9) | COc1ccc(-c2oc3ccccc3c(=O)c2O)cc1 | steady-state kinetics |  | pH 7.4, 37 °C | Vmax/Km | 32000 µL/min/mg
Insulin human |  | ELISA | rat, cerebellum | intranasal, 20 µg per nostril, 60 min | concentration | 154 ± 63.4 pg/mg tissue
ACCAGTCTTTTTCCTTTGTTATTCATAATATCATGAACAAATTTTGACGATTTTGTGACATTTGGGTGAAAAAAAGGTGAACAATCGAAAAAAATAAGGCTAATTGGTGAAGATTTTGATAGCATAGCAAGGTAGAAGAAAAAAGTTTTTCAGAATCCTTTTATCTTAGATATTCTGACCAAATTTTAGACATCATTAAGGAAGGATGGTGAT (dsDNA) | abrB full length assumed | EMSA | double-stranded DNA, one strand shown |  | binding | binds
GGGAUCGUCAGGUGGGAUAAUCCUUACCUGUUCCUCCUCCGGAGGGCAGAUUAGAACAUGAUGAUUGGAGAUGCAUGAAACGUGAUUAACGUCUCUGCGUAAUCAGGACUUGCAACACCCUGAUUGCUCCUGUCUGAUU (structured RNA) | SNU13 | EMSA |  | 100 nM, with: Mg2+ 1.5 mM | binding | binds
